# Literature values, collected from citations in different studies.
# Compare with care: the assays were run in different laboratories. Several values in a cell are separate wells, animals, samples, runs or records. ± marks the error that the study gave.
SMILES,tested on,test,test system,setting,scale,endpoint,result
C[C@]12C=CC(=O)C=C1[C@@H](CSC[C@H](N)C(=O)O)CC1C2CC[C@]2(C)C(=O)CCC12 (some centres unmarked),,,"women taking exemestane, urine",dose not given,,urinary concentration,5.9 ± 0.58 nmol/mg creatinine
CCc1nn(C)c2nc(-c3ccc(C(=O)O)cc3)nc(NCc3ccccc3)c12,,,mouse,,,half-life,0.9 h
O=C(O)C(F)(OC(F)(F)C(F)(F)C(F)(F)F)C(F)(F)F (centres unmarked),,"literature value, method not stated",,,,pKa,3.82
c1ccc2cc3c(ccc4ccccc43)cc2c1,,substrate,human liver microsomes,,,Vmax,0.022 nmol/min/mg
Clc1ccc(C(c2ccc(Cl)cc2)C(Cl)Cl)cc1,,,,,,log Kow,6.02
CC(C)=CCCC(C)=CCCn1cc(CC(P(=O)(O)O)P(=O)(O)O)nn1,,,plasma,concentration not given,,terminal half-life,47.7 h
C=Cc1c(C)c2cc3nc(c(CC(=O)[O-])c4[n-]c(cc5nc(cc1[n-]2)C(C)=C5CC)c(C)c4C(=O)[O-])C(CCC(=O)[O-])C3C.[Cu+2].[Na+].[Na+].[Na+] (centres unmarked),,,healthy human volunteers,"oral, phase I",,tolerated dose,> 500 mg
Cc1ccc(C(C)C)cc1.O=C(N=P(c1ccccc1)(c1ccccc1)c1ccccc1)c1ccccn1.[Cl-].[Cl][Ru+],,,water,,,half-life,60 h
Cc1ccc(C(C)C)cc1.F[P-](F)(F)(F)(F)F.[Cl][Os+]1[N]2C=CC=c3ccc4c(c32)[N]1C=CC=4,,,,45 °C,,aquation rate constant,0.073 h⁻¹
CC[C@H](C)[C@H](NC(=O)[C@H](CCCN)NC(=O)[C@H](CCCNC(=N)N)NC(=O)[C@@H]1CCCN1C(=O)[C@@H]1CCCN1C(=O)[C@H](CCCNC(=N)N)NC(=O)[C@@H]1CCCN1C(=O)[C@H](CCCNC(=N)N)NC(=O)[C@@H]1CCCN1C(=O)[C@H](CC(C)C)NC(=O)[C@H](Cc1ccc(O)cc1)NC(=O)[C@@H]1CCCN1C(=O)[C@@H]1CCCN1C(=O)[C@H](CCCCN)NC(=O)[C@H](CC(=O)O)NC(=O)[C@@H](N)C(C)C)C(=O)N[C@@H](Cc1ccc(O)cc1)C(=O)N[C@@H](CC(N)=O)C(=O)N[C@@H](CCCN)C(N)=O,,,mouse serum,,,half-life,3 h and ~3 h
COC(=O)OC1C(=O)C2(C)C(O)CC3OCC3(OC(C)=O)C2C(OC(=O)c2cccc(OC(F)(F)F)c2)C2(O)CC(OC(=O)C(O)C(C=C(C)C)NC(=O)OC(C)(C)C)C(C)=C1C2(C)C (centres unmarked),CFPAC-1,cytotoxicity,,,,IC50,0.51 nM
CC[C@H](C)[C@@H]1NC(=O)[C@@H]2CSSC[C@@H](C(=O)N[C@@H](CO)C(=O)N[C@@H](CC(C)C)C(=O)N[C@@H](CO)C(=O)N[C@H](C(=O)N[C@@H](C)C(=O)N[C@@H](CCC(N)=O)C(=O)N[C@@H](CCC(=O)O)C(=O)O)C(C)C)NC(=O)[C@H](CCCNC(=N)N)NC(=O)[C@H](CCCNC(=N)N)NC(=O)[C@H](CCCCN)NC(=O)[C@H](CCCNC(=N)N)NC(=O)[C@H](CSSC[C@H](NC(=O)[C@H](CO)NC(=O)[C@H](C)NC(=O)CNC(=O)[C@@H](NC(=O)[C@@H]3CCCN3C(=O)[C@H](CCCNC(=N)N)NC(=O)[C@H](CC(C)C)NC(=O)[C@H](CO)NC(=O)[C@@H](NC(=O)CNC(=O)[C@H](CCCNC(=N)N)NC(=O)[C@H](Cc3c[nH]c4ccccc34)NC(=O)[C@H](Cc3ccccc3)NC(=O)[C@@H]3CCCN3C(=O)[C@@H](NC(=O)[C@@H](N)CCSC)[C@@H](C)O)C(C)C)[C@@H](C)CC)C(=O)N[C@@H](CCCNC(=N)N)C(=O)N[C@@H](CC(=O)O)C(=O)N[C@@H](CC(=O)O)C(=O)N[C@@H](CO)C(=O)N[C@@H](CCC(=O)O)C(=O)N2)NC(=O)[C@H](CC(C)C)NC(=O)[C@H](CCCNC(=N)N)NC(=O)[C@H]([C@@H](C)O)NC1=O,,,"mouse, plasma",,,plasma half-life,0.167 to 0.25 h
COc1cc2c(cc1-n1ccnc1)C[C@H]1[C@H]3CCCC[C@@]23CCN1C,,metabolic stability,mouse liver microsomes,,,half-life,0.243 h
CN[C@H](CC(C)C)C(=O)N[C@H]1C(=O)N[C@@H](CC(N)=O)C(=O)N[C@H]2C(=O)N[C@H]3C(=O)N[C@H](C(=O)N[C@H](C(=O)O)c4cc(O)cc(O)c4-c4cc3ccc4O)[C@H](O)c3ccc(c(Cl)c3)Oc3cc2cc(c3O[C@@H]2O[C@H](CO)[C@@H](O)[C@H](O)[C@H]2O[C@H]2C[C@](C)(NCc3ccc(-c4ccc(Cl)cc4)cc3)[C@H](O)[C@H](C)O2)Oc2ccc(cc2Cl)[C@H]1O,,,mouse,,,MTD,75 mg/kg
CCCCCCCCCCCCNC=C1N=C(c2ccc[nH]2)C=C1OC.Cl,HepG2,cytotoxicity,,,,IC50,2.4 µg/mL
O=C(O)c1ccccc1/C=N/Nc1nc(-c2ccccc2Cl)cs1,,,"Sprague-Dawley rat, male","intravenous, 1 mg/kg",,C0,34500 ± 18800 ng/mL
Brc1ccc(Oc2ccc(Br)cc2Br)c(Br)c1,,,,25 °C,,water solubility,0.015 µg/mL
CC(=O)OC12COC1CC(O)C1(C)C(=O)C(OC(=O)N(C)C)C3=C(C)C(OC(=O)C(O)C(C=C(C)C)NC(=O)OC(C)(C)C)CC(O)(C(OC(=O)c4cccc(OC(F)(F)F)c4)C21)C3(C)C (centres unmarked),HCT-116,cytotoxicity,,,,IC50,1.79 nM
Clc1ccc(C(c2ccc(Cl)cc2)C(Cl)(Cl)Cl)cc1,,,,25 °C,,water solubility,0.025 µg/mL
CC[C@H](C)[C@H](NC(=O)CNC(=O)[C@H](CCCCN)NC(=O)[C@H](CCCCN)NC(=O)[C@H](CCC(N)=O)NC(=O)[C@H](CC(C)C)NC(=O)[C@H](CCCCN)NC(=O)[C@H](CC(C)C)NC(=O)[C@H](CC(C)C)NC(=O)[C@H](CCCCN)NC(=O)[C@H](CCCCN)NC(=O)[C@H](CC(C)C)NC(=O)[C@H](CC(C)C)NC(=O)[C@H](CCCCN)NC(=O)[C@H](CCSC)NC(=O)[C@H](C)NC(=O)[C@H](CCCCN)NC(=O)[C@@H]1CCCN1C(=O)[C@H](C)N)C(=O)O,,,human erythrocytes,,up to,highest non-haemolytic concentration,≤ 200 µM
